# Experimental data pooled from the literature.
# Numbered parts are unrelated; each lists some results of a single study. Substitutions count along the parent as printed.

# Block 1 — method: protein-binding microarray; molecule type: double-stranded DNA, one strand shown; sample: in vitro; tested at: 2200 nM top; notes: 60-bp whole probe; together with: salmon DNA 0.4 mg/ml; baseline: random background probes; reading: higher = stronger binding; constant ends, left off below: GCCTAGCAC … GTCTTGATTCGCTTGACGCTGCTG
# Target: Interferon regulatory factor 7, full length, phosphomimetic (IRF7, Homo sapiens, UniProt Q92985, residues 1-503, S471D/S472D/S475D/S476D/S477D/S483D/S484D/S487D)
# Construct (chain): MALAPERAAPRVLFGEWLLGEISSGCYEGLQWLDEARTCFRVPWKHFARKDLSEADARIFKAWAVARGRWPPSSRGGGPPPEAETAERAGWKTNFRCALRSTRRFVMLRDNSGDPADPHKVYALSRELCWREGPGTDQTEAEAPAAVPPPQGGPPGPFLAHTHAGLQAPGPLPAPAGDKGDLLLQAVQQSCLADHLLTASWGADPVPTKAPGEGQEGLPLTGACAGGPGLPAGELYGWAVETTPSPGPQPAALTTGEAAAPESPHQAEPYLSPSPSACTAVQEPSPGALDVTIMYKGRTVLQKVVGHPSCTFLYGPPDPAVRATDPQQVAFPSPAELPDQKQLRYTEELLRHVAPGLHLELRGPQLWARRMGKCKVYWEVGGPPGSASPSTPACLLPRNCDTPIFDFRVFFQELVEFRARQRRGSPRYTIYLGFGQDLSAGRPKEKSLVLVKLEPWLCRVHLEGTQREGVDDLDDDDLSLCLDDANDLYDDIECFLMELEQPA
Strand,fitted relative affinity [z-score]
TTAGGTCTCGGTATCGGATAGTGCTAG,0.545
GACGGTTCCGGTTTCGGGGCGTGCTAG,4.92
GAGCCTCTGTTTTGAGCACAGTGCTAG,0.832
TCTCTTTCCTTCTTGATGCAGTGCTAG,3.49
GACGCTTTCGGGTATCGAGACGTGCTA,6.38
TTAGGTTTCCTTTTCCTTTCGTGCTAG,8.55
TTAGGTTTCGGTATCGGCTAGTGCTAG,7.52
GACGATTTCACTATCGAGACGTGCTAG,1.67
TTAGGTTTCGACGATCGGTTAGTGCTA,1.35
TTACGTTTCGACTATCGGTTAGTGCTA,5.02
TTAGGTTTTGGACTGGGTTAGTGCTAG,0.444
TCAACTCTCTTGTCTGGAACTGTGCTA,1.24
GCCGGTTTCGACTATCGGGACGTGCTA,5.02
TTAGGACTGGCTCTCGGTTAGTGCTAG,-0.0898
TTAGCTTTCGGGTATCGATTAGTGCTA,6.02
TCAACACTAATTTTTACACTGTGCTAG,0.17
TTAGAACTGAGACTAGATTAGTGCTAG,-1.06
GGCTCTCAGTGGGCTGCTGGGTGCTAG,-0.908
GACGGTATCGACTTTCGGGGCGTGCTA,2.14

# Block 2 — method: DHFR PCA, deep sequencing; sample: yeast; together with: (+)-ABA 0 µM; baseline: wild-type fitted maximum; reading: higher = stronger binding
# Target: ABI1, truncated, D143A, DHFR fusion (Arabidopsis thaliana)
# Notes: methotrexate growth selection, single substitutions
# Parent: PYL1, truncated, DHFR fusion (Arabidopsis thaliana); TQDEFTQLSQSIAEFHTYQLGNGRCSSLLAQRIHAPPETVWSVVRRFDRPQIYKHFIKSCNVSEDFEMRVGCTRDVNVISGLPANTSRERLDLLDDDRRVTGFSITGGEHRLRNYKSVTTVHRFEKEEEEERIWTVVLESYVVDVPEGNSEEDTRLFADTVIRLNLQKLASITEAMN
Substitution,relative binding score [%]
L93A,1.34
D95K,-7.33
G148A,3.7
T160K,-2.61
V136L,15.4
E130K,40.6
D75C,10.2
G71Y,-0.688
S150M,2.89
Q31R,5.85
P36K,9.04
I33E,3.13
R32A,17.2

# Block 3 — method: protein-binding microarray; molecule type: double-stranded DNA, one strand shown; sample: in vitro; tested at: not given; reading: higher = stronger binding
# Target: Max-binding protein MNT, bHLH-zipper, MAX partner unstated (MNT, Homo sapiens, UniProt Q99583, residues 220-300)
# Notes: k-mer, scored over probes, only values ≥0.25
# Target sequence (chain): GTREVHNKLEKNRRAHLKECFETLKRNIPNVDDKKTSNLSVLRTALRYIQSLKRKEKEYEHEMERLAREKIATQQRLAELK
Strand,E-score
CAGCCCCG,0.258
ACGTGAGA,0.379
CCCCACCC,0.34
AACCCATG,0.261
CATGGAGC,0.282
CGGGACAC,0.283
CCGTGTCA,0.301
CGACCACG,0.374
CATGACAC,0.318
CGTGCGTA,0.316
CATGTTGA,0.3
ACACGCTA,0.312
TGACCCCA,0.261
AAACCCCA,0.268
ACGTGAGC,0.366
CCTCATGC,0.373
ATTCACGC,0.282
ACGTGGGG,0.414
CACCGGCA,0.254
CCGCGAGG,0.277
AAGCATGC,0.413
CGTGACAC,0.393
GCGGTCAC,0.266

# Block 4 — method: protein binding microarray; molecule type: double-stranded DNA, one strand shown; sample: in vitro; tested at: not given; baseline: not given; reading: higher = stronger binding
# Target: Histone acetyltransferase KAT6A, winged helix 1, GST fusion (KAT6A, Homo sapiens, UniProt Q92794, residues 1-85)
# Notes: 8-mer, flanks averaged, mean of 2 arrays, mostly near background
# Target sequence (chain): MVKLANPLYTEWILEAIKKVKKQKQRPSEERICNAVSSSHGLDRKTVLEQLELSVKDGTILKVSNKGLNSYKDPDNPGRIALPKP
Strand,E-score
AGTAGAAC,-0.215
GGGGATAC,0.0312
CGGCGCCA,0.414
ATTATTGG,-0.159
TATCATCA,-0.00957
GCGTTCCA,0.0995
CATGAAGC,0.083
GTCCGCAC,0.179
CCATTATA,-0.0807
AAGATTAT,-0.15
ATCCACTG,-0.142
CAAATTTA,-0.209
GAATGGAA,-0.129
ATGAGAGC,-0.226
CCTGCGTA,0.0534
GTCGGGGA,0.199
GGCAAGGA,-0.0855

# Block 5 — target: CCND1, cyclin fold, Cln2 fusion (human); method: yeast growth competition, sequencing; sample: yeast; notes: strong parent motif; baseline: not given; reading: higher = stronger binding
# Parent: CDKN1A docking peptide (human); SKACRRLFGPVDS
Substitution,normalised enrichment score
L7P,-0.123
V11F,2.99
C4S,0.865
P10D,4.12
P10T,1.99
C4N,0.497
A3K,0.488
P10M,1.05
F8Y,-0.00945
R5M,0.547
R6G,0.213
R6Y,0.816
D12F,1.23
F8D,0.239
V11H,2.81
K2E,1.65

# Some of these lines once more (block 2):
Substitution,relative binding score [%]
R32A,17.2
G148A,3.7
I33E,3.13
D75C,10.2
S150M,2.89
Q31R,5.85
G71Y,-0.688
V136L,15.4
E130K,40.6
P36K,9.04
L93A,1.34
D95K,-7.33
T160K,-2.61
